Measured values collected from several papers.
Each numbered part is a random draw from the data of one study; scales do not carry over between parts. Substitutions count along the parent as printed.

Sample 1 — method: protein binding microarray; form: double-stranded DNA, one strand shown; medium: in vitro; concentration: not given; baseline: not given; direction: higher = stronger binding; endpoint: E-score
Target: Histone acetyltransferase KAT6A, winged helix 2, GST fusion (KAT6A, Homo sapiens, UniProt Q92794, residues 85-181)
Setting: 8-mer, flanks averaged, mean of 2 arrays, mostly near background
Target sequence (chain): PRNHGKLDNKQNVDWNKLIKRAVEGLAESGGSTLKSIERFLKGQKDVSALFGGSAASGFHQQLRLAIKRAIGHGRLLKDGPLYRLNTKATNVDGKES
Sequence = CACGAAGC; value = -0.0438
Sequence = CGATGTGC; value = 0.091
Sequence = AGGTCTCG; value = 0.0619
Sequence = ATTTTTAG; value = 0.0789
Sequence = CCGATCAA; value = 0.0972
Sequence = CTCGGTTC; value = -0.078
Sequence = GCGCACAC; value = -0.0171
Sequence = CCCAAGTA; value = -0.0668

Sample 2 — method: RNA Bind-n-Seq; form: RNA; medium: in vitro; concentration: 20 nM; setting: 6-mer, flanks averaged, single round; together with: 150 mM KCl; baseline: input library; direction: higher = stronger binding; endpoint: 6-mer enrichment (R)
Target: TAR DNA-binding protein 43, full length, His tag (TARDBP, Homo sapiens, UniProt Q13148, residues 1-414)
Sequence = AACUUU; value = 0.61
Sequence = UGAGCA; value = 0.856
Sequence = UAUCCG; value = 0.597
Sequence = GCCUAU; value = 0.67
Sequence = UAUCAU; value = 0.54
Sequence = CGCUUA; value = 0.593
Sequence = UACUCC; value = 0.605
Sequence = CUAUGG; value = 0.903

Sample 3 — Substitution: H122P; method: DHFR PCA, deep sequencing; medium: yeast; baseline: wild-type fitted maximum; direction: higher = stronger binding; endpoint: relative binding score
Target: ABI1, truncated, D143A, DHFR fusion (Arabidopsis thaliana)
Setting: methotrexate growth selection, single substitutions
Starting sequence: PYL1, truncated, DHFR fusion (Arabidopsis thaliana); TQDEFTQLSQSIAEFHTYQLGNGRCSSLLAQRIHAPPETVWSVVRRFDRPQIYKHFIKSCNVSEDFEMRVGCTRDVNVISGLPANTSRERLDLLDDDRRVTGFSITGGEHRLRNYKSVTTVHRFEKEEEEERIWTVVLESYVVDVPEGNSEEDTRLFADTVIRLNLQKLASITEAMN
together with = (+)-ABA 200 µM; value = -0.0919%
together with = (+)-ABA 0.11 µM; value = -2.03%
together with = (+)-ABA 0.032 µM; value = 1.07%
together with = (+)-ABA 0 µM; value = 7.13%
together with = (+)-ABA 58 µM; value = -4.25%
together with = (+)-ABA 710 µM; value = 8.04%

Mixed results
Starting sequence: PafA, mature enzyme, eGFP fusion (Elizabethkingia meningoseptica, UniProt Q9KJX5); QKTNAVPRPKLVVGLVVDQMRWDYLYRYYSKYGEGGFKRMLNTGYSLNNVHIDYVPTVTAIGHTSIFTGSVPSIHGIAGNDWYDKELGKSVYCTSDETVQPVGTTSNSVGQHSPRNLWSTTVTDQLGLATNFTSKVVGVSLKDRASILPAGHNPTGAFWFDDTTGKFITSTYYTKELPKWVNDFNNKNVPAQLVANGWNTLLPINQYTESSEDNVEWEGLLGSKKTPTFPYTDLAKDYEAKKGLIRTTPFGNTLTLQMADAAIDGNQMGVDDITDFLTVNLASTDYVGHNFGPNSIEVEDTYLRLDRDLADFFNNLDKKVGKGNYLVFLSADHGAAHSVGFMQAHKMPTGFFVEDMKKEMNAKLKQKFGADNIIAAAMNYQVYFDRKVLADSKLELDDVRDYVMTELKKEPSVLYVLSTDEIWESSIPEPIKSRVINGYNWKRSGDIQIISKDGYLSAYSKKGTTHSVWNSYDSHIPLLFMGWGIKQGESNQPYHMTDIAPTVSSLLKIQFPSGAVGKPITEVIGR
Substitution = N491G; target = vanadate, free oxyanion; assay = microfluidic competitive inhibition; test system = in vitro, cell-free expressed; conditions = not given, derived from inhibition constants, unchanged parent 676 nM; how to read = lower = stronger binding; endpoint = oxyanion analog dissociation constant; value = 718 nM

For quick reference, copied from above (sample 1):
Sequence = CTCGGTTC; value = -0.078
Sequence = GCGCACAC; value = -0.0171
Sequence = CCGATCAA; value = 0.0972
Sequence = CCCAAGTA; value = -0.0668
